Literature values as cited in several papers.
± gives the spread as reported.
ACE: Angiotensin-converting enzyme (ACE, Homo sapiens, UniProt P12821)
Sequence of UniProt P12821 (whole entry, looked up): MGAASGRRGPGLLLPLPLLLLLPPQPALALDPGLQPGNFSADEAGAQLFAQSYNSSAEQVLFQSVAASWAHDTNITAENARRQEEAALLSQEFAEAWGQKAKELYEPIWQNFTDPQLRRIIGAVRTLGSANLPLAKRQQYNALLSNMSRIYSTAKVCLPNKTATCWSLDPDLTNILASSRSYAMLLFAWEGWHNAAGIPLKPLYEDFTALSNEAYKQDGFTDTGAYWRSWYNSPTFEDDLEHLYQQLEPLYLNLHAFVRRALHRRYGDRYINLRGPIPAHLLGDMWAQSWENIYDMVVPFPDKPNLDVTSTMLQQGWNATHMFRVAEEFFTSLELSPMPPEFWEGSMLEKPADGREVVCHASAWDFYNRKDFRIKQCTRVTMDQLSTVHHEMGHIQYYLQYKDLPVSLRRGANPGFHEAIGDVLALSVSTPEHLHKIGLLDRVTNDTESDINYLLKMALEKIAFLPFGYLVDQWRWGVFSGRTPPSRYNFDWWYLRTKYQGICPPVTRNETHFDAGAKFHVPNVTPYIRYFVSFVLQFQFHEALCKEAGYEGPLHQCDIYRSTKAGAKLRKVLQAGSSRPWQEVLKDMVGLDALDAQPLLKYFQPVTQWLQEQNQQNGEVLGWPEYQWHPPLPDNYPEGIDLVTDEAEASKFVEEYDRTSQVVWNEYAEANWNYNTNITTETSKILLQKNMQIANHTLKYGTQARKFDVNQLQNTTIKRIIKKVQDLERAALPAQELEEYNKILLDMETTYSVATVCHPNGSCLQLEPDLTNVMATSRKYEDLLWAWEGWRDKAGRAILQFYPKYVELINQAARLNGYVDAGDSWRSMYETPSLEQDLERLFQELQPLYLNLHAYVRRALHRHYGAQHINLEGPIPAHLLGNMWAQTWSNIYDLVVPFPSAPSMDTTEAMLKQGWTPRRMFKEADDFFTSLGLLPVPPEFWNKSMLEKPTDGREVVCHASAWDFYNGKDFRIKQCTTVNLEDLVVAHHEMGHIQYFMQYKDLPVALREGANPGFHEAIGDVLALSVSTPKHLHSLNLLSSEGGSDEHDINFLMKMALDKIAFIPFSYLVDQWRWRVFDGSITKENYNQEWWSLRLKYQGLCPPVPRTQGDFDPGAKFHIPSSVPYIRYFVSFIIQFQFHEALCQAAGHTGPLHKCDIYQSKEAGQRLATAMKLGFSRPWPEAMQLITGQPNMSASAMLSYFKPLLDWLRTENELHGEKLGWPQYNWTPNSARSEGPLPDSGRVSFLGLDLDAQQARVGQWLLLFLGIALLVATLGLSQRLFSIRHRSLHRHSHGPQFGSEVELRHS
PTGS2: Prostaglandin G/H synthase 2 (PTGS2, Homo sapiens, UniProt P35354)
Sequence of UniProt P35354 (whole entry, looked up): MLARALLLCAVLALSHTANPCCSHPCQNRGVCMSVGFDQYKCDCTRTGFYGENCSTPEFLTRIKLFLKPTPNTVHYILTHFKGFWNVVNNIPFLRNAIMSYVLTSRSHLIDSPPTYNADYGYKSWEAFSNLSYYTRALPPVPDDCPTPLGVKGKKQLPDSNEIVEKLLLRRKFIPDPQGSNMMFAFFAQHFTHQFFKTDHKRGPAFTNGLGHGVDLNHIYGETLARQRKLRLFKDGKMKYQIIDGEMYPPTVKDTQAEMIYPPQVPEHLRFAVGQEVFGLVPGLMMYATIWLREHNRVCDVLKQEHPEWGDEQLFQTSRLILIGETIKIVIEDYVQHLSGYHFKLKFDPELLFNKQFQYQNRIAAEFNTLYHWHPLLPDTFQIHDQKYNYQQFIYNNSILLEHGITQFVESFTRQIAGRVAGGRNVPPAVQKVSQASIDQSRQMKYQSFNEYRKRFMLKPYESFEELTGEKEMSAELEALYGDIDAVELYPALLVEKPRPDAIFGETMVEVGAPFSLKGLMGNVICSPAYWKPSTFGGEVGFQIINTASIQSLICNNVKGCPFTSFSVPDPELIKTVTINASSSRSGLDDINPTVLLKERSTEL
B1: CCL1; sequence looked up; chain KSMQVPFSRCCFSFAEQEIPLRAILCYRNTSSICSNEGLIFKLKRGKEACALDTVGWVQRHRKMLRHCPSKRK
Sequence of UniProt Q9ZMY2 (whole entry, looked up): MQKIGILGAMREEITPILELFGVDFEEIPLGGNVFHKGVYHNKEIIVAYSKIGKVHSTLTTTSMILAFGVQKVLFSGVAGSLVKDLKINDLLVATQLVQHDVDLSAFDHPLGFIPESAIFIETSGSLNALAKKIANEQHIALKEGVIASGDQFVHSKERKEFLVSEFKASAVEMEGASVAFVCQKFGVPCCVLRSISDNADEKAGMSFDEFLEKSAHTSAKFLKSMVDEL

| Molecule | target or system | assay | test system | setting | quantity | value |
| --- | --- | --- | --- | --- | --- | --- |
| PQVSTPTL | ACE | – | peptide | – | IC50 | 86 ± 8 µM |
| tolmetin | PTGS2 | inhibitor | – | – | IC50 | 0.82 µM |
| VRPGVKESLV | CHAPSYN-110 PDZ domains 2/3 | binding, fluorescence polarization | peptide | – | Kd | 1.53 µM |
| DIGGL | ACE | enzyme activity, inhibitor | peptide | – | IC50 | 10.3 µM |
| FVHPILQSAV | CHAPSYN-110 PDZ domain 3 | binding, fluorescence polarization | peptide | – | Kd | 12.2 µM |
| CHRSYYCWNLNT | Programmed cell death 1 ligand 1 (CD274, Homo sapiens, UniProt Q9NZQ7) | binding | peptide | – | IC50 | 0.44 µM |
| bromfenac sodium | PTGS2 | inhibitor | – | – | IC50 | 0.00745 µM |
| GQLNKFIKKAQRKFHEKFAK | Staphylococcus aureus | – | peptide, ATCC 33591 | – | MIC | > 512 µg/mL |
| Et-DADMe-ImmA | Aminodeoxyfutalosine nucleosidase (Helicobacter pylori, UniProt Q9ZMY2) | enzyme activity, inhibitor | – | tighter complex after isomerization | Ki | 0.053 ± 0.007 nM |
| ILRWPWRIWRR | Staphylococcus aureus | – | peptide, ATCC 33591 | – | MIC | 64 µg/mL |
| SPGPW | ACE | inhibitor | peptide | – | IC50 | 1310 µM |
| tolmetin sodium | PTGS2 | inhibitor | – | – | IC50 | 0.82 µM |
| SLPNPHPSPR | ACE | – | peptide | – | IC50 | 146 µM |
| B1 (CCL1) | CCR8 S110H mutant | IP accumulation, agonist | – | – | EC50 | > 1 µM |
| GVLY | ACE | enzyme activity, inhibitor | peptide | – | IC50 | 16 µM |
| AHFSSLESEV | CHAPSYN-110 PDZ domain 3 | binding, fluorescence polarization | peptide | – | Kd | 14.3 µM |
| lithium acetylsalicylate | PTGS2 | inhibitor | – | – | IC50 | 1130 µM |
| ELDEFPETSV | CHAPSYN-110 PDZ domain 3 | binding, fluorescence polarization | peptide | – | Kd | 4.95 µM |
| pegcetacoplan | – | – | cynomolgus monkey | 28 or 140 mg/kg | cardiovascular, respiratory, body temperature effects | no effect |
